Published values from different studies.
Parts stem from different laboratories: compare values within a part only.
UniProt P07949, sequence (whole entry, unmodified, looked up): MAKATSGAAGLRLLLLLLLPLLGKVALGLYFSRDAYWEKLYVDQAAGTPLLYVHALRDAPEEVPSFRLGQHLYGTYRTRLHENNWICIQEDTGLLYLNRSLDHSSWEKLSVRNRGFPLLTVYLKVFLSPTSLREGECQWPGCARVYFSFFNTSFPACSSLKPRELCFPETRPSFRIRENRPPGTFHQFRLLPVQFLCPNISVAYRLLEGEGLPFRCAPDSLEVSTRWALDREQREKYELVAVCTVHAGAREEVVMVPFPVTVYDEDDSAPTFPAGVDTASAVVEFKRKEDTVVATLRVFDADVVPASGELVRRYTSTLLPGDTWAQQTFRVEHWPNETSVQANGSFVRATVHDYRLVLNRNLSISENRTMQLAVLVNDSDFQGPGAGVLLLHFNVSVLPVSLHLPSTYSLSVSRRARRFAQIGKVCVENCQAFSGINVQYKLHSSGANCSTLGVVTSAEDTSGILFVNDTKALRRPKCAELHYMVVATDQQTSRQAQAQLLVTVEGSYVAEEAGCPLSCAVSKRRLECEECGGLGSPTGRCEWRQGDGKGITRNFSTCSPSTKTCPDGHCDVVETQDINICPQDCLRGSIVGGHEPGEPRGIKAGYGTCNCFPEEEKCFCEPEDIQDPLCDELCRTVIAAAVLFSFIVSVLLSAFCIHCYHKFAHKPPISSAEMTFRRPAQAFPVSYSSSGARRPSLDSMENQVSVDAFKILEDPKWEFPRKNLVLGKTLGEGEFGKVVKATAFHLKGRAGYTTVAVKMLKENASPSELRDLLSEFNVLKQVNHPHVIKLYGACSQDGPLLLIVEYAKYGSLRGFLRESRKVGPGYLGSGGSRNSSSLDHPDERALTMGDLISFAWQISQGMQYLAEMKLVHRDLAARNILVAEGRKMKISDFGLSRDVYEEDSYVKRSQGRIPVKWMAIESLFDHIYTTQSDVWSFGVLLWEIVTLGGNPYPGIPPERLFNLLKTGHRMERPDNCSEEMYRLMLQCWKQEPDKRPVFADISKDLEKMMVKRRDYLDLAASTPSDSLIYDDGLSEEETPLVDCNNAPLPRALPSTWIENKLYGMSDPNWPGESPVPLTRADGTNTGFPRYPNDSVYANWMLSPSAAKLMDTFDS
UniProt O14936, sequence (whole entry, looked up): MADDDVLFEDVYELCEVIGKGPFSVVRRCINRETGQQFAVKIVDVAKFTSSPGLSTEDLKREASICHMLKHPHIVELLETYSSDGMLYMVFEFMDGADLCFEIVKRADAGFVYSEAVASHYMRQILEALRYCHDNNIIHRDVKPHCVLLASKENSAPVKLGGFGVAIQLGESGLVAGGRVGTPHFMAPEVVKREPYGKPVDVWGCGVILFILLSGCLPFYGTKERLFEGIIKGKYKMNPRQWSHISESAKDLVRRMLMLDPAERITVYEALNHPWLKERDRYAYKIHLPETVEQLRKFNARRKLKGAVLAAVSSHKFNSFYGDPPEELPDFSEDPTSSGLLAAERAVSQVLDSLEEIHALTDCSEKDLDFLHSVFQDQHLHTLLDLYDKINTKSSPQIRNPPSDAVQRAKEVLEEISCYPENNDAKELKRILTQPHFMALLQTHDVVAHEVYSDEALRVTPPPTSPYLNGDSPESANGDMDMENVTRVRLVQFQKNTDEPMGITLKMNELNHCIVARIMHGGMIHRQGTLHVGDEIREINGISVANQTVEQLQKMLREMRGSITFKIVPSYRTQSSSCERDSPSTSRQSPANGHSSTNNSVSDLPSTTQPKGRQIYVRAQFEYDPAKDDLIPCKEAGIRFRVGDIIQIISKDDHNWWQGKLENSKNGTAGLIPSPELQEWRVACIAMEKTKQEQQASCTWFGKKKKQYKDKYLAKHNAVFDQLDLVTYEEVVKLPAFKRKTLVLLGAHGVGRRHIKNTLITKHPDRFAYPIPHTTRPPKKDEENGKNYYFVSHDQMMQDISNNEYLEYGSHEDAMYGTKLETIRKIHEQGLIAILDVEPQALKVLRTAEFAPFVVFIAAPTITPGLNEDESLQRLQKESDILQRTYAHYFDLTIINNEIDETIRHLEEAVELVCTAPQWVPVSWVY
UniProt Q8TD08, sequence (whole entry, looked up): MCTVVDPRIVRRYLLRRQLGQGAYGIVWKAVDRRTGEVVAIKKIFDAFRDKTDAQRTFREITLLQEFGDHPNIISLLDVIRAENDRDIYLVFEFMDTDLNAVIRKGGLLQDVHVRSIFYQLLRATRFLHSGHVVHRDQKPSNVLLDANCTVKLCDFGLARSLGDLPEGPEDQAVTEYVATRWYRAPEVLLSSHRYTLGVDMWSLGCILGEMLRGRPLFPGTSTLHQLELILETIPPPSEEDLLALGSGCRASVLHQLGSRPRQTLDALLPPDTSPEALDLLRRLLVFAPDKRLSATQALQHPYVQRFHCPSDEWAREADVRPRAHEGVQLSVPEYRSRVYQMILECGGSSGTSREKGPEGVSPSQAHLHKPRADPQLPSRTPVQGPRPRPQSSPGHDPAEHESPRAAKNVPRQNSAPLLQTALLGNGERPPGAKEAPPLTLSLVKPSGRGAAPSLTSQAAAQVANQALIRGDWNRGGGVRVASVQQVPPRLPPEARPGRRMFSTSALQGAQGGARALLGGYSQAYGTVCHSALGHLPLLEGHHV
UniProt Q15139, sequence (whole entry, looked up): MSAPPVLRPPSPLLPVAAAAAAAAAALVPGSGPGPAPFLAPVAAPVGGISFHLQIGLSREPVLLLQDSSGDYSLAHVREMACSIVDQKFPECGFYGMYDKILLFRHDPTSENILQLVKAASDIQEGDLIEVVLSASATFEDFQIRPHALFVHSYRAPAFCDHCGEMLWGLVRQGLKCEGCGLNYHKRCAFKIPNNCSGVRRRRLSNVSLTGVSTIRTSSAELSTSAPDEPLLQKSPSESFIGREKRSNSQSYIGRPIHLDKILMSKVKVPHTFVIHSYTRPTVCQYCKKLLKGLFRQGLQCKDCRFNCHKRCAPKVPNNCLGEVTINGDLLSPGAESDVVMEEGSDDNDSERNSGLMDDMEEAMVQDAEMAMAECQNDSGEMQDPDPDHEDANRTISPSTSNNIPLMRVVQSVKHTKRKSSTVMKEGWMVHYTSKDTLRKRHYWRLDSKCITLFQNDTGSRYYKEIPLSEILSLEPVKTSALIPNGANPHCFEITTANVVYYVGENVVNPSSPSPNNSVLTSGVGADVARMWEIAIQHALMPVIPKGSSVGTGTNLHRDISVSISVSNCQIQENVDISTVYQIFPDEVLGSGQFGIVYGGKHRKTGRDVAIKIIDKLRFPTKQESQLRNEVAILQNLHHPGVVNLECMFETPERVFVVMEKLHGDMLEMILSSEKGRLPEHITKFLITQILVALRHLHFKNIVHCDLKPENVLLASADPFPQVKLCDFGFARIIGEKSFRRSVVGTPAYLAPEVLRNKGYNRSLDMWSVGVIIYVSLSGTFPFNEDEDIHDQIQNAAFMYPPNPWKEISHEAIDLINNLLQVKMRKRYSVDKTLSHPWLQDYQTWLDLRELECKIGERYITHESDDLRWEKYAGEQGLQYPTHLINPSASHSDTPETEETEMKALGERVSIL
UniProt Q9Y243, sequence (whole entry, looked up): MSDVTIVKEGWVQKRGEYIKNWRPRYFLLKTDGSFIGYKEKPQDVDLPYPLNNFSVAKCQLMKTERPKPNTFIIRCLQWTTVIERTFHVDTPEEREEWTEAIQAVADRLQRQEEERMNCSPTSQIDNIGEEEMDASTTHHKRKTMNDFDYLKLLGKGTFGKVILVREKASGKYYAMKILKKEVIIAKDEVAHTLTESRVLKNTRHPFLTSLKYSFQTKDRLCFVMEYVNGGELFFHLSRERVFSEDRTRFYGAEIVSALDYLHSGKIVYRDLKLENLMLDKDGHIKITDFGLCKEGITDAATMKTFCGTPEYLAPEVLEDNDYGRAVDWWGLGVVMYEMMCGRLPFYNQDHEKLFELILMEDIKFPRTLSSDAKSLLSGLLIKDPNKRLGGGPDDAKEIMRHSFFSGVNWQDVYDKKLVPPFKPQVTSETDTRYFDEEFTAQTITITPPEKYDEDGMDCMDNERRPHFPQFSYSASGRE

Study 1 — cell line: A-375; concentration: 100 µM; time: 36 h
| Compound | viability [%] |
| --- | --- |
| Cc1ccc(N(CC2=NCCN2)c2cccc(O)c2)cc1 | 18.3 |
| O=c1[nH]c(=O)n([C@H]2C[C@H](O)[C@@H](CO)O2)cc1C(F)(F)F | 28 |
| C[C@]12CCC3=C4CCC(=O)C=C4CC[C@H]3[C@@H]1CC[C@@]2(O)CC#N | 106 |
| Nc1nc2[nH]cc(CCc3ccc(C(=O)O)cc3)c2c(=O)[nH]1 | 56.9 |
| CC1(C)O[C@@H]2C[C@H]3[C@@H]4CCC5=CC(=O)C=C[C@]5(C)[C@@]4(F)[C@@H](O)C[C@]3(C)[C@]2(C(=O)CO)O1 | 93.8 |
| CO[C@H]1C(=O)[C@]2(C)[C@@H](OC)C[C@H]3OC[C@@]3(OC(C)=O)[C@H]2[C@H](OC(=O)c2ccccc2)[C@]2(O)C[C@H](OC(=O)[C@H](O)[C@@H](NC(=O)OC(C)(C)C)c3ccccc3)C(C)=C1C2(C)C | 40.8 |
| C[C@H]1[C@H](OC(=O)CCC(=O)O)O[C@@H]2O[C@@]3(C)CC[C@H]4[C@H](C)CC[C@@H]1[C@@]24OO3 | 34.4 |
| COC(=O)CCc1ccc(OCC(O)CNC(C)C)cc1 (stereo not shown) | 98 |
| CCOC(=O)n1ccn(C)c1=S | 91.7 |
| OC(CCCN1CCCCC1)(c1ccccc1)c1ccccc1 | 104 |

Study 2 — effect on: enzyme activity; action: inhibitor; concentration: 10 µM
Target: Calcium/calmodulin-dependent protein kinase type II subunit alpha (CAMK2A, Homo sapiens, UniProt Q9UQM7)
UniProt Q9UQM7, sequence (whole entry, looked up): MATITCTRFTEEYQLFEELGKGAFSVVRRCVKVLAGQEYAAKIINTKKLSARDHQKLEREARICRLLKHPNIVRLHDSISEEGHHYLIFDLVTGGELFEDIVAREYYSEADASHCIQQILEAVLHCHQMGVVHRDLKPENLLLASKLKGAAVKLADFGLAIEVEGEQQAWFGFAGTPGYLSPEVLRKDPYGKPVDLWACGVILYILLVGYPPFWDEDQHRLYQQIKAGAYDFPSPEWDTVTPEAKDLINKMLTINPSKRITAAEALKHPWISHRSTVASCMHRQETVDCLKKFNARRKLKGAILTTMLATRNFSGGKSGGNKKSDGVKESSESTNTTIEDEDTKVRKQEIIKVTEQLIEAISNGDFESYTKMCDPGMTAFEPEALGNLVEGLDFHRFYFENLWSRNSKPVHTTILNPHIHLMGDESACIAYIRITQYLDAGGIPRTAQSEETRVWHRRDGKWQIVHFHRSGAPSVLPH
| Compound | inhibition [%] |
| --- | --- |
| NC(=O)c1ccccc1O | -4 |
| CCCCC(F)(F)[C@@]1(O)CC[C@H]2[C@@H](CC(=O)[C@@H]2CCCCCCC(=O)O)O1 | -4 |
| CC(C)(O)[C@H]1CC[C@@](C)([C@H]2CC[C@]3(C)[C@@H]2[C@H](O)C[C@@H]2[C@@]4(C)CC[C@H](O)C(C)(C)[C@@H]4[C@@H](O[C@@H]4O[C@H](CO)[C@@H](O)[C@H](O)[C@H]4O)C[C@]23C)O1 | 21 |
| CC1=C(C=O)C(C)(C)C[C@H](O[C@@H]2O[C@H](CO)[C@@H](O)[C@H](O)[C@H]2O)C1 | 19 |
| COC1=CC(=O)C[C@@H](C)[C@]12Oc1c(Cl)c(OC)cc(OC)c1C2=O | 3 |

Study 3 — effect on: cell-free assay; technique: competition with immobilised ligand; concentration: 1 µM
SMILES: O=C1CCc2cc(Nc3cc(OC4CCOCC4)c([N+](=O)[O-])cc3Cl)ccc2N1
| target | remaining binding [%] |
| --- | --- |
| PRKAA2 (Homo sapiens, UniProt P54646) | 100 |
| HUNK (Homo sapiens, UniProt P57058) | 93 |
| MINK1 (Homo sapiens, UniProt Q8N4C8) | 83 |
| Tyrosine-protein kinase ABL1, phosphorylated (ABL1, Homo sapiens, UniProt P00519, T315I) | 80 |
| ULK3 (Homo sapiens, UniProt Q6PHR2) | 100 |
| EPHA6 (Homo sapiens, UniProt Q9UF33) | 80 |
| Ribosomal protein S6 kinase alpha-1, C-terminal kinase domain (RPS6KA1, Homo sapiens, UniProt Q15418) | 100 |
| STK33 (Homo sapiens, UniProt Q9BYT3) | 77 |
| RET (Homo sapiens, UniProt P07949) | 89 |
| Tyrosine-protein kinase JAK1, JH1 (JAK1, Homo sapiens, UniProt P23458) | 94 |
| AKT3 (Homo sapiens, UniProt Q9Y243) | 94 |
| SIK3 (Homo sapiens, UniProt Q9Y2K2) | 75 |
| ERBB2 (Homo sapiens, UniProt P04626) | 100 |
| STK26 (Homo sapiens, UniProt Q9P289) | 87 |
| PRKD1 (Homo sapiens, UniProt Q15139) | 87 |
| MTOR (Homo sapiens, UniProt P42345) | 89 |
| RET (Homo sapiens, UniProt P07949, V804L) | 91 |
| FGFR3 (Homo sapiens, UniProt P22607, G697C) | 79 |
| EGFR (Homo sapiens, UniProt P00533) | 100 |
| TSSK3 (Homo sapiens, UniProt Q96PN8) | 100 |
| MAPK15 (Homo sapiens, UniProt Q8TD08) | 96 |
| NIM1K (Homo sapiens, UniProt Q8IY84) | 100 |
| WNK2 (Homo sapiens, UniProt Q9Y3S1) | 100 |
| CASK (Homo sapiens, UniProt O14936) | 100 |
| CDK16 (Homo sapiens, UniProt Q00536) | 88 |

Study 4 — effect on: enzyme activity; action: inhibitor; concentration: 0.5 µM; reference: control
Target: Serine/threonine-protein kinase PAK 1 (PAK1, Homo sapiens, UniProt Q13153)
UniProt Q13153, sequence (whole entry, looked up): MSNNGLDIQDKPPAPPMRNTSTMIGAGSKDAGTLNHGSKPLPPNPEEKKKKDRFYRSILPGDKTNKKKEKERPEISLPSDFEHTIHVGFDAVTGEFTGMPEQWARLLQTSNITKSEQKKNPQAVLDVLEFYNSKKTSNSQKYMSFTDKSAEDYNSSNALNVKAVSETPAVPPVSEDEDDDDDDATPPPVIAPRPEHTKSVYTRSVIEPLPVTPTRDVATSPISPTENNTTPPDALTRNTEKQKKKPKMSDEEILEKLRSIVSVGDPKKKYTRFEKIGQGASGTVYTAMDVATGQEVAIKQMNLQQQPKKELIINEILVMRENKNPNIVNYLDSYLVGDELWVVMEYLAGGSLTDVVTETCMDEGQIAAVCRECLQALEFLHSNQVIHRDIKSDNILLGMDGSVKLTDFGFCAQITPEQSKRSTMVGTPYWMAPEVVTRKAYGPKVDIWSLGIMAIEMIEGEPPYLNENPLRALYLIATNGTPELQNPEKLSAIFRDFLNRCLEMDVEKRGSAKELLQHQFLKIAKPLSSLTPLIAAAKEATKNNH
| Compound | remaining activity [%] |
| --- | --- |
| Cc1cc2ncc(-c3ccccc3)nc2cc1C | 97.8 |
| CCN(CC)CCNC(=O)c1c(C)[nH]c(/C=C2\C(=O)Nc3ccc(F)cc32)c1C | 118 |
| O=C1C(Cl)=C(N2C(=O)CCC2=O)C(=O)c2ccccc21 | 96.3 |
| CCOc1nc(NC(=O)Cc2cc(OC)ccc2OC)cc(N)c1C#N | 102 |
| O=c1cc(-c2cccc3c2Sc2ccccc2S3)oc(N2CCOCC2)c1 | 92.3 |
| Cn1nc2c3c(cccc31)C(=O)c1ccccc1-2 | 98.5 |
| N#C/C(=C\c1ccc(O)c(O)c1)C(=O)NCc1ccccc1 | 97.7 |
| O=C(NC(NC(=S)Nc1ccc(F)c([N+](=O)[O-])c1)C(Cl)(Cl)Cl)C(c1ccccc1)c1ccccc1 (stereo not shown) | 86 |
| CCN(CC)C(=O)c1ccc(Nc2nc(OCC3CCCCC3)c3[nH]cnc3n2)cc1 | 93.8 |
| Ic1cccc(CSc2nnc(-c3ccncc3)o2)c1 | 94.8 |
| O=C(Nc1cccc(Nc2nccc(Nc3cccc(C(F)(F)F)c3)n2)c1)C1CC1 | 89.5 |
| N#Cc1c(NC(=O)c2cccc3ccccc23)sc2c1CCCC2 | 97.4 |
| COc1cc2ncnc(Nc3cccc(Cl)c3)c2cc1OC | 89.3 |
| Nc1cccc(-c2cc3c(Oc4cccc(O)c4)ncnc3[nH]2)c1 | 88 |
| c1ccc(-c2cnc(Nc3ccc(OCCN4CCCC4)cc3)s2)cc1 | 97 |
| O=C1c2ccccc2-c2n[nH]c3cccc1c23 | 94.8 |
| Cc1nc2cc3nc(-c4cccs4)cnc3cc2n1C | 86.6 |
| C[C@@H]1CCN(C(=O)CC#N)C[C@@H]1N(C)c1ncnc2[nH]ccc12 | 108 |
| CN([C@@H](Cc1ccc(OS(=O)(=O)c2cccc3cnccc23)cc1)C(=O)N1CCN(c2ccccc2)CC1)S(=O)(=O)c1cccc2cnccc12 | 95.7 |
| COc1cc2c(cc1OC)-c1[nH]nc(Nc3cccc(F)c3)c1C2 | 96.9 |
| Cc1cn(-c2cc(NC(=O)c3ccc(C)c(Nc4nccc(-c5cccnc5)n4)c3)cc(C(F)(F)F)c2)cn1 | 117 |
| COc1cc2ncnc(Nc3ccc(O)c(Br)c3)c2cc1OC | 94.1 |
| c1ccc(-c2[nH]ncc2-c2ccnc3ccccc23)nc1 | 96.3 |
| CCN(CC)CCNC(=O)c1c(C)[nH]c(/C=C2\C(=O)Nc3ccc(Cl)cc32)c1C | 93.4 |

Repeated from above (study 4):
| Compound | remaining activity [%] |
| --- | --- |
| N#Cc1c(NC(=O)c2cccc3ccccc23)sc2c1CCCC2 | 97.4 |
| COc1cc2ncnc(Nc3cccc(Cl)c3)c2cc1OC | 89.3 |
| Nc1cccc(-c2cc3c(Oc4cccc(O)c4)ncnc3[nH]2)c1 | 88 |
| c1ccc(-c2cnc(Nc3ccc(OCCN4CCCC4)cc3)s2)cc1 | 97 |
| O=C1c2ccccc2-c2n[nH]c3cccc1c23 | 94.8 |
| Cc1nc2cc3nc(-c4cccs4)cnc3cc2n1C | 86.6 |
